Published values collected from several papers.
In brackets after ≈: the same amount, converted by molar mass.

| Compound | target or system | assay | test system | setting | how to read | endpoint | result |
| --- | --- | --- | --- | --- | --- | --- | --- |
| O=C1c2c(O)c(=O)ccn2N([C@@H]2c3ccccc3SCc3c2ccc(F)c3F)[C@@H]2COCCN12 | influenza A virus | – | A/WSN/33 (H1N1), BALB/c mouse, lung | subcutaneous, 0.5 mg/kg every 6 h, 24 h | – | lung virus titre | 2.67 log10 TCID50/mL |
| COc1cc2ccc3oc([N+](=O)[O-])cc3c2cc1OC | Mycobacterium bovis BCG | – | 1173 P2 | – | – | MIC90 | 0.125 µg/mL (≈ 0.457 µM) |
| CCCCC1(CCCC)CN(c2ccccc2)c2cc(SC)c(OCC(=O)N[C@@H](C(=O)NCC(=O)O)c3ccccc3)cc2S(=O)(=O)C1 | – | refers to: LDL cholesterol | human, serum | 2.5 mg once daily, day 11 | – | serum LDL-C | 97.5 mg/dL |
| O=C1NC(=O)C(C2C3=C(CCCC3=O)Oc3ccc([N+](=O)[O-])cc32)C(=O)N1 (stereo not shown) | 3T3-L1 adipocytes | qPCR, refers to: FAS | – | IC20, 14 days | reference: untreated mature adipocytes | mRNA level | decreased |
| CC(C)N1CCC(NC2CCN(c3cccc(-c4cc5cc(F)ccc5[nH]4)c3)CC2)CC1 | 786-0 | – | – | – | – | GI50 | 1.65 µM |
| C#CC[C@@H](N)C(=O)N[C@H](CCC(N)=O)C(=O)NCC(=O)N[C@H](CC(C)C)C(=O)NCC(=O)N[C@H](CC)C(=O)N[C@H](CC(=O)O)C(=O)N[C@H](CCC(=O)O)C(=O)N[C@H](CC(N)=O)C(=O)N[C@H](CC(C)C)C(=O)N[C@H](CCC(N)=O)C(=O)NCC(=O)N[C@H](Cc1ccccc1)C(=O)N[C@H](C)C(=O)N[C@@H](C(=O)N[C@H](C)C(=O)N[C@@H](C(=O)N[C@H](CCCCN)C(=O)N[C@H](CCSC)C(=O)NCC(=O)N[C@H](C)C(=O)N[C@H](Cc1ccc(O)cc1)C(=O)N[C@H](CCCCN)C(=O)N[C@H](C)C(=O)N[C@H](Cc1c[nH]c2ccccc12)C(=O)O)C(C)C)C(C)C | hemagglutinin influenza A/California/07/2009 H1N1 | – | – | – | – | IC50 | > 250 µM |
| CNCCc1c[nH]c2ccccc12 | NMT from Rhinella marina | – | – | 10 min, 30 °C | – | kcat | 0.0021 s⁻¹ |
| COc1cc(CCC[P+](c2ccccc2)(c2ccccc2)c2ccccc2)c(OC)c2c1OCO2.[I-] | Hs-578T | SRB | – | – | – | GI50 | -5.76 log M |
| O=C(CCc1ccc(Br)cc1)N[C@H]1CCOC1=O | ExpR1 (Pectobacterium carotovorum) | cellulase activity, agonist | Pectobacterium carotovorum, single-ExpR1 strain | 200 µM, 4 h | reference: OHHL | activation | 3% |
| COCCC1=C(C(=O)OC)C(c2ccc(Cl)cc2C)C2=C(CC(c3ccc(OC)c(OC)c3)OC2=O)N1 (single isomer, unassigned) | Plasmodium berghei | parasitaemia | KBG-173, mouse | oral, 50 mg/kg, day 6 post-infection, PEG400 vehicle, Thompson test | reference: vehicle | inhibition | < 10% |
| COc1ccc2c(ccc3oc([N+](=O)[O-])cc32)c1 | Mycobacterium bovis BCG | – | 1173 P2 | – | – | MIC90 | 0.125 µg/mL (≈ 0.514 µM) |
| CC[C@@H](NC(=O)CNC(=O)[C@@H](Cc1ccccc1)NC(=O)CNC(=O)[C@H](N)CCC(N)=O)C(=O)N[C@H](CC(=O)O)C(=O)N[C@H](CCC(=O)O)C(=O)N[C@H](CCSC)C(=O)N[C@H](CC(C)C)C(=O)N[C@H](CCC(N)=O)C(=O)NCC(=O)N[C@H](Cc1ccccc1)C(=O)N[C@H](C)C(=O)N[C@@H](C(=O)N[C@H](C)C(=O)N[C@@H](C(=O)N[C@H](CCCCN)C(=O)N[C@H](CCSC)C(=O)NCC(=O)N[C@H](C)C(=O)N[C@H](Cc1ccc(O)cc1)C(=O)N[C@H](CCCCN)C(=O)N[C@H](C)C(=O)N[C@H](Cc1c[nH]c2ccccc12)C(=O)O)C(C)C)C(C)C | hemagglutinin influenza A/California/07/2009 H1N1 | – | – | – | – | IC50 | 36 µM |
| COc1c(CCC[P+](c2ccccc2)(c2ccccc2)c2ccccc2)cc2c(c1OC)OCO2.[I-] | SK-MEL-2 | SRB | – | – | – | TGI | -4.85 log M |
| c1ccc(C(NCCNC(c2ccccc2)c2ccccc2)c2ccccc2)cc1 | GABA transporter (rat) | Eurofins selectivity panel | – | 10 µM | – | inhibition | 46% |
| CC[C@H](C)[C@@H]1NC(=O)[C@@H]2CCCN2C(=O)[C@H](CC(C)C)NC(=O)[C@H](CC(C)C)NC(=O)CNC(=O)[C@@H](NC(=O)[C@@H](NC(=O)[C@H](CC(=O)O)NC(=O)CNC(=O)[C@@H](NC(=O)[C@H](C)NC(=O)CNC(=O)[C@H](CCCCN)NC(=O)[C@H](CC(C)C)NC(=O)[C@H](CC(C)C)NC(=O)[C@H](CCCCN)NC(=O)CNC(=O)[C@@H](NC(=O)[C@@H](N)CC(C)C)C(C)C)C(C)C)C(C)C)CSSC[C@@H](C(=O)O)NC1=O | – | RNA-seq, refers to: Ankrd9 | mouse, traumatic brain injury model, frontal cortex and hippocampus | dose not given | reference: TBI alone | log2 fold change | -0.875 |
| COc1ccc(-n2nc(C(C)=O)s/c2=N\N=C(/C)c2ccc(NC(C)=O)cc2)cc1 | MCF7 | RT-PCR, refers to: Bcl-2 mRNA | – | 0.04 µM | reference: untreated control | mRNA level | 0.159 fold change |
| CC[C@@H](NC(=O)CNC(=O)[C@@H](CC(C)C)NC(=O)CNC(=O)[C@H](N)CCC(N)=O)C(=O)N[C@H](CC(=O)O)C(=O)N[C@H](CCC(=O)O)C(=O)N[C@H](CC(N)=O)C(=O)N[C@H](CC(C)C)C(=O)N[C@H](CCC(N)=O)C(=O)NCC(=O)N[C@H](Cc1ccccc1)C(=O)N[C@H](C)C(=O)N[C@@H](C(=O)N[C@H](C)C(=O)N[C@@H](C(=O)N[C@H](CCCCN)C(=O)N[C@H](CCSC)C(=O)NCC(=O)N[C@H](C)C(=O)N[C@H](Cc1ccc(O)cc1)C(=O)N[C@H](CCCCN)C(=O)N[C@H](C)C(=O)N[C@H](Cc1c[nH]c2ccccc12)C(=O)O)C(C)C)C(C)C | hemagglutinin influenza A/California/07/2009 H1N1 | – | – | – | – | IC50 | 43 µM |
| CCCCCCCCCC(=O)CC(=O)N[C@H]1CCOC1=O | ExpR1 (Pectobacterium carotovorum) | cellulase activity, agonist | Pectobacterium carotovorum, single-ExpR1 strain | 200 µM, 4 h | reference: OHHL | activation | 2% |
| CN1CCN(C2(CNC3CCN(c4cccc(-c5cc6cc(F)ccc6[nH]5)c4)CC3)CCC2)CC1 | MDA-MB-435 | – | – | – | – | CC50 | 4.8 µM |
| O=C(Cc1cccc(Cl)c1)N[C@H]1CCOC1=O | ExpR1 (Pectobacterium carotovorum) | cellulase activity, agonist | Pectobacterium carotovorum, single-ExpR1 strain | 200 µM, 4 h | reference: OHHL | activation | 49% |
| C[C@]12CCC(=O)C=C1CC[C@@H]1[C@@H]2CC[C@@]2(C)[C@H]1CC[C@]2(C)O | primary rat hippocampal/cortical neuron-glia cultures | – | – | 1 µM, together with: 1 µM α-synuclein oligomers | – | reversal of trafficking deficit | -14.7% |
| CC(C)CC(=O)OC[C@H]1O[C@@](C#N)(c2ccc3c(N)ncnn23)[C@H](O)[C@@H]1O | NMDA receptor Phencyclidine site (rat) | – | – | 20 µM | – | inhibition | 3% |

Repeated from above:
| Compound | target or system | assay | test system | setting | how to read | endpoint | result |
| --- | --- | --- | --- | --- | --- | --- | --- |
| CCCCCCCCCC(=O)CC(=O)N[C@H]1CCOC1=O | ExpR1 (Pectobacterium carotovorum) | cellulase activity, agonist | Pectobacterium carotovorum, single-ExpR1 strain | 200 µM, 4 h | reference: OHHL | activation | 2% |
| CN1CCN(C2(CNC3CCN(c4cccc(-c5cc6cc(F)ccc6[nH]5)c4)CC3)CCC2)CC1 | MDA-MB-435 | – | – | – | – | CC50 | 4.8 µM |
| O=C(Cc1cccc(Cl)c1)N[C@H]1CCOC1=O | ExpR1 (Pectobacterium carotovorum) | cellulase activity, agonist | Pectobacterium carotovorum, single-ExpR1 strain | 200 µM, 4 h | reference: OHHL | activation | 49% |
| C[C@]12CCC(=O)C=C1CC[C@@H]1[C@@H]2CC[C@@]2(C)[C@H]1CC[C@]2(C)O | primary rat hippocampal/cortical neuron-glia cultures | – | – | 1 µM, together with: 1 µM α-synuclein oligomers | – | reversal of trafficking deficit | -14.7% |
